Results pooled from the literature.
Parts stem from different laboratories: compare values within a part only. Positions count from the first letter of the parent shown.
Chain of UniProt P41143 (whole entry, looked up): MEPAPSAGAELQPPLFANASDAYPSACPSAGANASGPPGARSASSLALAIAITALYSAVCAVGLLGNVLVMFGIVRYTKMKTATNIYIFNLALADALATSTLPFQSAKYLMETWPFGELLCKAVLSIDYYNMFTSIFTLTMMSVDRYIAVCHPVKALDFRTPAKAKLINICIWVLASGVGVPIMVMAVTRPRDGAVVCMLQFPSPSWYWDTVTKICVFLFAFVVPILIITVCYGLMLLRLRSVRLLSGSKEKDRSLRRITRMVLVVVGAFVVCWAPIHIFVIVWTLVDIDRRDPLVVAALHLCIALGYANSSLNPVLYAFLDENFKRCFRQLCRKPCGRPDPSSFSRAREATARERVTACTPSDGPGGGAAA

Series 1
Target: CCNB3, cyclin fold, Cln2 fusion (human)
Method: yeast growth competition, sequencing
Matrix: yeast
Notes: strong parent motif
Baseline: not given
Reading: higher = stronger binding
Parent: viral docking peptide; CKVKRKLFGSENI; partner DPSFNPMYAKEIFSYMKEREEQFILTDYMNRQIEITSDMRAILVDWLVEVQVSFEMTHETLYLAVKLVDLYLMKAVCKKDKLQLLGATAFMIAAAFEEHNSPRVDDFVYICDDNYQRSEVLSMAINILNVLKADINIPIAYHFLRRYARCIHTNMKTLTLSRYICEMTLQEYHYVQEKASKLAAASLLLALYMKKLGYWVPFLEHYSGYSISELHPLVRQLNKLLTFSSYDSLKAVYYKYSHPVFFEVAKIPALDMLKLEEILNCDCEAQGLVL
Under “normalised enrichment score”, `K6A` is recorded as 0.559.
`F8L`: “normalised enrichment score” -0.209.
`K4A` — result for “normalised enrichment score”: 0.937.
Under “normalised enrichment score”, `S10A` is recorded as 0.868.
For `N12A`, “normalised enrichment score” read 0.975.

Series 2
Target: UDP-N-acetylglucosamine--peptide N-acetylglucosaminyltransferase 110 kDa subunit (OGT, Homo sapiens, UniProt O15294)
Chain of UniProt O15294 (whole entry, looked up): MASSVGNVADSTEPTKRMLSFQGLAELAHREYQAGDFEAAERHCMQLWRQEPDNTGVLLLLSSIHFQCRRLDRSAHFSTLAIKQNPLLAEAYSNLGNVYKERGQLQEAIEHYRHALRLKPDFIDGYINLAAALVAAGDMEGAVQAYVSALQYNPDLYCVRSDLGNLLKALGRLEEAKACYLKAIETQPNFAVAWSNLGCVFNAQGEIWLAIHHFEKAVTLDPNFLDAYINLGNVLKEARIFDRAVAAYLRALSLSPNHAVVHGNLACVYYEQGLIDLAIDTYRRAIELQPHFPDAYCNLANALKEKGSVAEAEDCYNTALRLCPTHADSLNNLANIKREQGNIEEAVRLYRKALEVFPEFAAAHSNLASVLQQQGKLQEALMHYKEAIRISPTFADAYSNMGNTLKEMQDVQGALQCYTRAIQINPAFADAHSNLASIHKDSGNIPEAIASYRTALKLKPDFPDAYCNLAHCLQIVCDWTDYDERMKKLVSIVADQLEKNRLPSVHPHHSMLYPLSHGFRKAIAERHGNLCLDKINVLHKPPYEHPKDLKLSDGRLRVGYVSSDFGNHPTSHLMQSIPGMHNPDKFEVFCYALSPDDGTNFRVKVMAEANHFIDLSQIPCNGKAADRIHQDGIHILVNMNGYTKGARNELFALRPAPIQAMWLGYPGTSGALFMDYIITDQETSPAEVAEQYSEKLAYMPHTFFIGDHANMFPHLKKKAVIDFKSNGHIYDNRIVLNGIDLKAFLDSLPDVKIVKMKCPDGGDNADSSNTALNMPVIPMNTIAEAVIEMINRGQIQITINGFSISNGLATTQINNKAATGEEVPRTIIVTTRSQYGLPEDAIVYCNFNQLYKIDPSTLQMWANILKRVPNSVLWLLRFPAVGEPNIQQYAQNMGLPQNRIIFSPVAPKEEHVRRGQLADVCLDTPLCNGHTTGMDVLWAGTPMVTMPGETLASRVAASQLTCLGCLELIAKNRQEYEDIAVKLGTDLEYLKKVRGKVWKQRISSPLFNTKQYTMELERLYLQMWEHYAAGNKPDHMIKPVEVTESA
Effect on: binding
Method: phage display NGS
Form: peptide
Concentration: concentration not given
Baseline: input library
Under “enrichment fold change”, `YRTAHSHDHASHHNH` is recorded as 11.6.
`WNAPRHHDTHWHVYT`: “enrichment fold change” 4.95.
`HWFPTHTHYFMRHTS`: “enrichment fold change” 9.59.
Under “enrichment fold change”, `GRSDHTPHFEYRAHA` is recorded as 3.04.
For `DSWFHAFAHHGHNTP`, “enrichment fold change” read 6.32.
Under “enrichment fold change”, `HVWSSKYSMHHQSSI` is recorded as 4.3.
For `NHAHYATDSHTHNHQ`, “enrichment fold change” read 4.94.
For `HYHNDFTFHFNHTFH`, “enrichment fold change” read 2.92.

Series 3
Target: tungstate, free oxyanion
Method: microfluidic competitive inhibition
Matrix: in vitro, cell-free expressed
Concentration: not given
Notes: derived from inhibition constants, unchanged parent 2230 nM
Reading: lower = stronger binding
Parent: PafA, mature enzyme, eGFP fusion (Elizabethkingia meningoseptica, UniProt Q9KJX5); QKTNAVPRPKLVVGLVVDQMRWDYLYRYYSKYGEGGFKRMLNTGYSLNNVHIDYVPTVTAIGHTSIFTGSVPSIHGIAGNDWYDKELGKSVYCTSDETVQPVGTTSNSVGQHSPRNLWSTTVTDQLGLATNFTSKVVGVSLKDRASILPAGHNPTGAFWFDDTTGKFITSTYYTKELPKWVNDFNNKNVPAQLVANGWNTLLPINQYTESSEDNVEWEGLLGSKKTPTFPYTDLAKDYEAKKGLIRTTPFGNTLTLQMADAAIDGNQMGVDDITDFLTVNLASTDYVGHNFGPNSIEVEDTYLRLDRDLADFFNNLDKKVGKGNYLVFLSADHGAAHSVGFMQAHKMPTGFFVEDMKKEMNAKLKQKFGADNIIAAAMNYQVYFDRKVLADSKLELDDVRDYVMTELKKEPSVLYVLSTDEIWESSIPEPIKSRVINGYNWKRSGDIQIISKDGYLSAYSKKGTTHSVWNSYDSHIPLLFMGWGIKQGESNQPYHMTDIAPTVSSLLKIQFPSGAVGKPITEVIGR
Under “oxyanion analog dissociation constant”, `F167V` is recorded as 3.47 µM.
`V189G`: “oxyanion analog dissociation constant” 2.15 µM.
`N182G` — result for “oxyanion analog dissociation constant”: 2.22 µM.
Under “oxyanion analog dissociation constant”, `K365G` is recorded as 2.56 µM.
`G265A`: “oxyanion analog dissociation constant” 2.35 µM.
`G88V` — result for “oxyanion analog dissociation constant”: 2.25 µM.
`G488V` — result for “oxyanion analog dissociation constant”: 1.56 µM.
`K432V`: “oxyanion analog dissociation constant” 2.07 µM.

Further values, each from its own experiment
With `CCN(CC)C(=O)c1ccc(C2=CC3(CCNCC3)Oc3cccc(O)c32)cc1` the EC50 was 22.2 nM (Delta-type opioid receptor, with Gi2 (OPRD1, Homo sapiens, UniProt P41143); human cells).

Some of these lines once more (series 2):
Under “enrichment fold change”, `HVWSSKYSMHHQSSI` is recorded as 4.3.
